Measured values collected from several papers.
A part holds a random share of what one study measured.

Series 1 — method: RNA Bind-n-Seq; molecule type: RNA; matrix: in vitro; concentration: 365 nM; relative to: no-protein control; direction: higher = stronger binding
Target: RNA binding protein fox-1 homolog 2, RRM domain, GST-SBP tag (RBFOX2, Homo sapiens, UniProt O43251-10, residues 100-194)
Notes: natural RNA segment, single round, ends assumed
Target sequence (chain): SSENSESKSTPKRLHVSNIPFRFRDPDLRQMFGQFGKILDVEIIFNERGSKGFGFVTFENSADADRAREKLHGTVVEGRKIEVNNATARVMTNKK
For `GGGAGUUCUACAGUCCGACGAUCUUAAACCACGACCCAGGUCCUUGGUUCACAUGGAAUAAUAAAGAUGUGUUUUUAGAUGGCACAUUGGUCCAUUUGUACACACCUGUCAUCGGGAUCUUAGUACAUGGACUUGGAAUUCUCGGGUGCCAA`, “RBNS enrichment (R)” read 0.259.
`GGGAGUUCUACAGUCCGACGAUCGGACUCUCCUUUCCCUUUGUUAGUGUCCUGGGUUCCCAUGGACUCAGGGAUUUGUUGGCUAAGGUUUCUCUGUGCAUAUAUAUAUAUAUACAUAUGUAUAUAUAUUUAAAUGGAAUUCUCGGGUGCCAA`: “RBNS enrichment (R)” 0.796.
Under “RBNS enrichment (R)”, `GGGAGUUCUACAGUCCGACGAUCGAAUUGAAUUUGCUCAAAAAAGAUGAAAGGAAAUGCAAACUGUAAAUGUAUAAAUGUAUAUUGUAUUGUAUGUACAUUUUAUAUUCAUAAUAAAGGCAAUCAAACUCUAAUGGAAUUCUCGGGUGCCAA` is recorded as 1.
Under “RBNS enrichment (R)”, `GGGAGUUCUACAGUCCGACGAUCAGGAGGCCCAUUUUCUGCCUGGCAGGGGGCAGGUCUGUGCCCUCCCGCUGACUCCUGCUGUGUCCUGAGGUGCAUUUCCUGUUGUACACACAAGGGCCAGGCUCCAUUCUUGGAAUUCUCGGGUGCCAA` is recorded as 0.345.
`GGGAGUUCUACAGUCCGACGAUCUUUUUGAAUUAUGAAAAAUAGCAAUAUUAAAAUUUAUAAUUGAGGAAUUUAUAGAAAGAUGACAUGCUUUUCUUAUAAUUGAUCACUUAAUUUUUUUAAUUAAAUACUCUUGGAAUUCUCGGGUGCCAA`: “RBNS enrichment (R)” 1.25.
For `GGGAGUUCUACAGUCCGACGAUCAAUGUAAGUCAGUCUCUUCUUUCAAAGGCAGAAGAUUAAACCCUACAGGUGGAUAGGGAUGCAGGGGCAGCCUUUCCCCGGGAAUCUGACUGGUCCGCACAACACACCCAUGGAAUUCUCGGGUGCCAA`, “RBNS enrichment (R)” read 0.406.
`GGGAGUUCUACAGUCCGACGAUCUUUGCAUUCUAGUUUGAAUAGUUUGUAUUGAAAUUGGAUUCCUAUCUUGUGUAUGUUUUUGGUGCGUAAAAGGGAAAAAUUGGUGUCAUUACUUUUGAAAUUUGCAGGACUGGAAUUCUCGGGUGCCAA`: “RBNS enrichment (R)” 2.12.
`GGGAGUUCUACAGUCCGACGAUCUAAAAGACAGAGGUGCUUGAAAAAGACAUUAAAAUCCUUACAAAGAAUGUACAUCAUCCCUCUUGGCCCAUUACAGUACUGCUCUCAGGUUCCUAUCAGUCCAUAUAAACUGGAAUUCUCGGGUGCCAA` — result for “RBNS enrichment (R)”: 0.345.

Series 2 — method: RNA Bind-n-Seq; molecule type: RNA; matrix: in vitro; concentration: not given; relative to: input RNA pool; direction: higher = stronger binding
Target: RING finger protein unkempt homolog, zinc fingers 1-6, GST-SBP tag (UNK, Homo sapiens, UniProt Q9C0B0, residues 30-357)
Sequence of UniProt Q9C0B0 (30-357, looked up): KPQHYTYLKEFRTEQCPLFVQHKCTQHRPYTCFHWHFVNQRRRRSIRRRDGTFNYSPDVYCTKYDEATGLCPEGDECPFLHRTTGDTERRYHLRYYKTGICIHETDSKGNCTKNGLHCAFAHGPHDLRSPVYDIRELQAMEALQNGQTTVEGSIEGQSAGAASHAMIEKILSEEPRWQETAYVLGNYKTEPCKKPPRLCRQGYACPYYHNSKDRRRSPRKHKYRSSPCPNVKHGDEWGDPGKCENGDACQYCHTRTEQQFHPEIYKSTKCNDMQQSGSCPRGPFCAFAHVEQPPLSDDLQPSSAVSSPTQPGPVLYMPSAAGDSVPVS
Notes: RNA with constant flanks, human-mouse chimeric sites, ends assumed
`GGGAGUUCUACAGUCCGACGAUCAAUUUCCUGUCAUACUUUUUAGACAUUCACAUCAGACUUACAGAGCACCUGGCCACAUUCUAGUUUUGUGUUAUUUCUCAGCUAUGGAUAUGAUCAAAUGAGAACACUGGCAGCCAGAUGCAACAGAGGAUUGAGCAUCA` gave a bound/input enrichment of 1.02 ratio.
`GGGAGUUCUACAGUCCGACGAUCCUGGCACUCUAUCAGAUAUAUUAAUUUUUUAAUGUAGAUAAAAUUUCAAAAAUGAAUGGCUACUUUACACGUUUAACUAGGCUCUUACUAUAUAUGUGUACAUAUGUAUAUAUAUAUAUACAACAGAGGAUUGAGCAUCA` has a bound/input enrichment of 8.41 ratio.
With `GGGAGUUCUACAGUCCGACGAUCAGAUUCCCCCUCCUGAGACCUCCUCCGAAAUUGGCAUCUCUUACAGAUGGUUCAUCUCCUGUUAGCGUUUUAGUUUGGACCACCCAGCCUUGGACAAUUCCCGCCAACCAGGCAAUUUGCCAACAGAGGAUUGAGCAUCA` the bound/input enrichment was 1.06 ratio.
For `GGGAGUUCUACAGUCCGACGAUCCUGUGUGUGCUGAAUAAUGAUUUGUGAAAGAAGUUUUUCCAAGCUGUACCCAUGUACGUUAUUAUAGUUGCUGCAAAAUGUUCUUCCUGAUAUUGAUUUUAUUUGUUAACUGAAGGUCUCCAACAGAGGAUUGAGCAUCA`, the bound/input enrichment was 0.584 ratio.
With `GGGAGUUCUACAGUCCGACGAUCACAGUUAUAUUGUUGAGUUUCAUUUUCUUGUAUGUUUAUGGUGUCUGCUUGCCUGUGACUUCUGGUAAAAUAAAAUAAGCCUUUGAAAAUAUUUUAGCAUGGUAUUUAACAUUUUCUAAACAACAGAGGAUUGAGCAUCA` the bound/input enrichment was 0.991 ratio.
For `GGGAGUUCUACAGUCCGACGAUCAUGGAGAAGGAUUCUCUGCCUCGCUUUGUGCGCUCUGAAUUUUAUAAGGAGCUAAUCAAGUAGUCAUCUGGUCAGGCUUCCAAAAGUUGCCCUGUGAUAUUUCCUCCAUCCUUUGUAGCACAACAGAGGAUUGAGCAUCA`, the bound/input enrichment was 0.169 ratio.
With `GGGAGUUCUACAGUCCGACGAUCCAGUCCCCGUGUCCCAGUGCAGGACGAUGUGAACAAAUCGAAGACAUGGACCCUCUAUUGUAGUUCUUGAUUCUCGAAAUGUGCUAUUAUUGUUUGUCUUUUUUUUUAAAAGAAAAGAGACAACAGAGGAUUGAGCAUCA` the bound/input enrichment was 0.241 ratio.
For `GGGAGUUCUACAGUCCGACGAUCACACAAUAUGAGACCAACAGCAUGGACUUCAAAGUUGGGGCAGAUGGGACAGUCUUCGCCACCCGGGAGCUGCAGGUCCCCUCCGAGCAGGUGGCCUUCACGGUGACUGCAUGGGACAGCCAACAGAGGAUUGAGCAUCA`, the bound/input enrichment was 0.279 ratio.

Series 3 — method: protein-binding microarray; molecule type: double-stranded DNA, one strand shown; matrix: in vitro; concentration: 0.8 µM; notes: whole 60-bp probe, no competitor; direction: higher = stronger binding
Target: Centromere-binding protein 1, full length, N-terminal tag (CBF1, Saccharomyces cerevisiae, UniProt P17106, residues 1-351)
Sequence of UniProt P17106 (whole entry, looked up): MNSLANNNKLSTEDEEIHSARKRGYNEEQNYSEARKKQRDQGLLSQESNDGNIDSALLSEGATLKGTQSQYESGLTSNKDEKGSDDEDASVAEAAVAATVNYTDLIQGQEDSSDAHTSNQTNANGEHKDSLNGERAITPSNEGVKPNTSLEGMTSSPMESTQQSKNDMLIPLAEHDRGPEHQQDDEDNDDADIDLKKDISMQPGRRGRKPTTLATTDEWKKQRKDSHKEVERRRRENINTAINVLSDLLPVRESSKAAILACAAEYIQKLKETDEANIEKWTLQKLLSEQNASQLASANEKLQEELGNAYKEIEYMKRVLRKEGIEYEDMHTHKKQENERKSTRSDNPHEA
`CTAAATATACAACCTGATGAGAAAGTAAGGTAATTCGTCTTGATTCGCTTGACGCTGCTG` has a fluorescence intensity of 549 a.u.
For `GAAGCACCAGCAAGTAGAGTCACGTACCCCCCATAGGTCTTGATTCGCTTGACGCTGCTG`, the fluorescence intensity was 674 a.u.
`GAAGGGAGAGCACAGCACGTTCTGCTTAAAAAATAGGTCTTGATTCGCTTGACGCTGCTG` gave a fluorescence intensity of 634 a.u.
With `CTACCAAAACGGATCATCACCACCATAATGATTTTCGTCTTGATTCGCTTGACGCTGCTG` the fluorescence intensity was 495 a.u.
`GAATATTTTTCTTTCCTCATGACCATTTAGTATTAGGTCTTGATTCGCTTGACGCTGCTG` has a fluorescence intensity of 829 a.u.
For `CTAACAAACTTCGGGCACGTCTTTTAAATAGGTTTCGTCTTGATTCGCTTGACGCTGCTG`, the fluorescence intensity was 541 a.u.
`GAAACTTCTTTTTTTCACATGAGAATGTAGTCCTAGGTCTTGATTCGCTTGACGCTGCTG` has a fluorescence intensity of 619 a.u.
For `GAATCCTTTGGTTTGCACGCGCGCTATGTTATCTAGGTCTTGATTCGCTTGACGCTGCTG`, the fluorescence intensity was 595 a.u.
`CTACAAACAGTACCTCACGTCTTTTTTTTGAATTTCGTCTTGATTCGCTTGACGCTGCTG` gave a fluorescence intensity of 537 a.u.
`CTACCGGAACACCGGCACGTATTTCATAAAAAGTTCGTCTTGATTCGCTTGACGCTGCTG` has a fluorescence intensity of 499 a.u.
For `GAACATCGCAAAAATCAGCTGAAAAATTTTGAATAGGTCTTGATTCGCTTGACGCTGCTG`, the fluorescence intensity was 531 a.u.
With `GAAGCTTCTTCTTGTGTGATGATGAGTTATTTTTAGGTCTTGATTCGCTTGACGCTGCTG` the fluorescence intensity was 565 a.u.
`CTAAGGAACAAGAAGCACGGGTACTCGTGTTAGTTCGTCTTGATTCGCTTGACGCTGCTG` has a fluorescence intensity of 747 a.u.
For `CTATCTCGAAGTGGTCACGTGCGGGTCTAGGCCTTCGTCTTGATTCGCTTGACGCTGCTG`, the fluorescence intensity was 20500 a.u.
The fluorescence intensity of `CCTAACTACTATAATTGTGACACATAGCTTCGTACAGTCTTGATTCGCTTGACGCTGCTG` is reported as 577 a.u.
The fluorescence intensity of `GAACTGAGGATTGTTTGTCAGGTGTCGCGGCCATAGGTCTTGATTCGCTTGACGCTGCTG` is reported as 1130 a.u.
`TGTACGAAGCTATACGTGGTTTTTATAGTAGTTAGGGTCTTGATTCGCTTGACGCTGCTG` has a fluorescence intensity of 543 a.u.
For `GAAGAAATATCATGTTGTGATGTTAGAAAATATTAGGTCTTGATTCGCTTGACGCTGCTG`, the fluorescence intensity was 560 a.u.
`CTAATCTACCTGTTCCACATGGGCGGTTATACCTTCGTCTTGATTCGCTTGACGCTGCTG` has a fluorescence intensity of 552 a.u.

Series 4 — method: universal PBM; molecule type: double-stranded DNA, one strand shown; matrix: in vitro; concentration: 600 nM; direction: higher = stronger binding
Target: Sal-like protein 4, full length isoform A (SALL4, Homo sapiens, UniProt Q9UJQ4, residues 1-1053)
Sequence of UniProt Q9UJQ4 (whole entry, looked up): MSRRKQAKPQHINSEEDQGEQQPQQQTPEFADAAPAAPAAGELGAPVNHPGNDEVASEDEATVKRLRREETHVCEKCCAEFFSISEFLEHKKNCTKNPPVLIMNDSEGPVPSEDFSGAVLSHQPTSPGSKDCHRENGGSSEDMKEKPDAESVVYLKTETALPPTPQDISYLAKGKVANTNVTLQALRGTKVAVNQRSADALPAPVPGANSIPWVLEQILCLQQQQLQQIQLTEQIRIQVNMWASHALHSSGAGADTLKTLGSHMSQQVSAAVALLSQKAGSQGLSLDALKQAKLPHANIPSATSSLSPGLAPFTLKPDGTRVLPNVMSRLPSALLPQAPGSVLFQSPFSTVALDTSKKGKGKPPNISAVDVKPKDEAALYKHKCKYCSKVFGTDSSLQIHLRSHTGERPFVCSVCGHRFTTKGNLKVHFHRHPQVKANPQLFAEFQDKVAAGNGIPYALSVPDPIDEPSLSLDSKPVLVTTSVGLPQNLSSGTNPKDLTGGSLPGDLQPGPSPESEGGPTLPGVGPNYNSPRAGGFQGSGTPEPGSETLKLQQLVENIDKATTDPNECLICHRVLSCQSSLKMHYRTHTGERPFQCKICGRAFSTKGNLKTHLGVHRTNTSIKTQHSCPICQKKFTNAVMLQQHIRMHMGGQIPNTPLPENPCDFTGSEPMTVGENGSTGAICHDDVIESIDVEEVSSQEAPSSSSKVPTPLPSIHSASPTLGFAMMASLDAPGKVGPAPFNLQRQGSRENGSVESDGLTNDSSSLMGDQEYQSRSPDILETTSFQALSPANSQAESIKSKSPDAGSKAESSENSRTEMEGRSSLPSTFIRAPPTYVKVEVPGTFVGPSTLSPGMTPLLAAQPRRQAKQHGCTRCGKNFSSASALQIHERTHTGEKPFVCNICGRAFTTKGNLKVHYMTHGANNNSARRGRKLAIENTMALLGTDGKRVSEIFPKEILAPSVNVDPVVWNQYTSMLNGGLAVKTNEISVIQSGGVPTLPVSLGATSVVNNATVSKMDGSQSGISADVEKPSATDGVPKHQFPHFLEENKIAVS
Notes: 8-mer, flanks averaged, mean of replicates
With `CGAAGACC` the E-score was -0.246.
`ATCGAGCG` has an E-score of -0.171.
`GACAACCC` has an E-score of -0.294.
With `AAGCATGA` the E-score was 0.0715.
For `CAGCCCAA`, the E-score was -0.219.
With `CCACTAAC` the E-score was 0.108.
`CCCAGAGG` gave an E-score of -0.347.
With `AAGCGATA` the E-score was 0.0731.
With `GACTTTAC` the E-score was 0.028.
`GCTCGCTA` has an E-score of -0.215.
`CCGACGGA` gave an E-score of -0.237.
With `GAAGTACA` the E-score was 0.068.
With `TCGTTAAA` the E-score was 0.158.
The E-score of `GAATACGA` is reported as 0.227.
For `ACGTATCA`, the E-score was 0.129.
`CCTGGGAG` gave an E-score of -0.278.
`ACGAAGGA` gave an E-score of 0.049.
With `ATGATCGG` the E-score was 0.0832.
The E-score of `GCAGACTA` is reported as -0.0186.
For `AAGGTAAT`, the E-score was 0.165.

Excerpt of the above (series 3):
`CTAAGGAACAAGAAGCACGGGTACTCGTGTTAGTTCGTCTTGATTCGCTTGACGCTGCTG` has a fluorescence intensity of 747 a.u.
With `CTACCAAAACGGATCATCACCACCATAATGATTTTCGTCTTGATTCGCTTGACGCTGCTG` the fluorescence intensity was 495 a.u.
`TGTACGAAGCTATACGTGGTTTTTATAGTAGTTAGGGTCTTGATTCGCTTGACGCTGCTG` has a fluorescence intensity of 543 a.u.
The fluorescence intensity of `CCTAACTACTATAATTGTGACACATAGCTTCGTACAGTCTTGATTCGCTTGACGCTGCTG` is reported as 577 a.u.
For `GAATCCTTTGGTTTGCACGCGCGCTATGTTATCTAGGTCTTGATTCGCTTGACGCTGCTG`, the fluorescence intensity was 595 a.u.
The fluorescence intensity of `GAACTGAGGATTGTTTGTCAGGTGTCGCGGCCATAGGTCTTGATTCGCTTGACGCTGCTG` is reported as 1130 a.u.
`CTAAATATACAACCTGATGAGAAAGTAAGGTAATTCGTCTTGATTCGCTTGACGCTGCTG` has a fluorescence intensity of 549 a.u.
`GAAGGGAGAGCACAGCACGTTCTGCTTAAAAAATAGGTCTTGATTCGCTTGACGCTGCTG` gave a fluorescence intensity of 634 a.u.
With `GAAGCTTCTTCTTGTGTGATGATGAGTTATTTTTAGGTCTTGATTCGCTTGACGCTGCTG` the fluorescence intensity was 565 a.u.
